Literature values as cited in several papers.
Numbers after ± are the reported error. Converted amounts (≈) assume the structure as drawn.

| Molecule | test | system | setting | scale | quantity | value |
| --- | --- | --- | --- | --- | --- | --- |
| O=C(O)CNC(=O)c1ccccc1[131I] |  | normal rat, blood | 10 min, together with: co-injected 99mTc-1 |  | percent injected dose | 5.6 ± 1 %ID |
| CCN(CC)CC#CCOC(=O)C(O)(c1ccccc1)C1CCCCC1 (stereo not drawn) |  | plasma | concentration not given |  | Cmax | 170 nM |
| CO[C@H]1C[C@@H]2CC[C@@H](C)[C@@](O)(O2)C(=O)C(=O)N2CCCC[C@H]2C(=O)O[C@H]([C@H](C)C[C@@H]2CC[C@@H](O)[C@H](OC)C2)CC(=O)[C@H](C)/C=C(\C)[C@@H](O)[C@@H](OC)C(=O)[C@H](C)C[C@H](C)/C=C/C=C/C=C/1C | population PK model | paediatric neurofibromatosis patients | dose not given |  | volume of distribution | 12 ± 5 L/kg |
| CCCCc1oc2ccccc2c1C(=O)c1cc(I)c(OCCN(CC)CC)c(I)c1 |  | human | concentration not given, clinical |  | diarrhoea incidence | < 2% |
| CN1CC[C@H](c2c(O)cc(O)c3c(=O)cc(-c4ccccc4Cl)oc23)[C@H](O)C1 |  | human |  |  | clearance | 31.4 ± 5.4 L/h |
| CCS(=O)(=O)N1CC(CC#N)(n2cc(-c3ncnc4[nH]ccc34)cn2)C1 |  | adult rheumatoid arthritis patients | oral, 4 mg once daily |  | AUC(0-24) at steady state | 1.3 µM·h |
| CN1CCC[C@@H]1CCO[C@](C)(c1ccccc1)c1ccc(Cl)cc1 |  | rat | together with: cyclosporin A |  | log brain permeability-surface product | -1.16 mL/g/s |
| COc1c(N2C[C@@H]3CCCN[C@@H]3C2)c(F)cc2c(=O)c(C(=O)O)cn(C3CC3)c12 |  | human, healthy volunteers | 400 mg single dose, 4 h | reference: predose baseline | QTc change | 12 ms |
| Nc1nc(NC2CC2)c2ncn([C@H]3C=C[C@@H](CO)C3)c2n1 |  | Japanese HIV-infected patients | 600 mg, single dose, fasted, together with: lamivudine 300 mg |  | AUC(0-inf) | 12900 ng·h/mL |
| CC[C@@H](C)[C@@H](NC(=O)[C@@H](CCCCN)NC(=O)[C@@H](CCCCN)NC(=O)[C@@H](Cc1ccccc1)NC(=O)[C@@H](CC(C)C)NC(=O)[C@@H](CCCCN)NC(=O)[C@H](N)CCCCN)C(=O)N[C@@H](CC(C)C)C(=O)N[C@@H](CCCCN)C(=O)N[C@@H](Cc1ccc(O)cc1)C(=O)N[C@@H](CC(C)C)C(N)=O |  | horse erythrocytes 5 % v/v | 150 µM |  | hemolysis | 1 ± 0.5% |
| N#CC[C@H](C1CCCC1)n1cc(-c2ncnc3[nH]ccc23)cn1 |  | rat | dose not given | reference: brain over plasma, higher = lower brain level | brain to plasma concentration ratio | 29 fold |
| C#CCN(C)Cc1ccccc1 |  | plasma | concentration not given |  | Cmax | 300 nM |
| Nc1ccn([C@@H]2CS[C@H](CO)O2)c(=O)n1 |  | water | hydrate form |  | aqueous solubility | 84.9 mg/mL (≈ 370 mM) |
| CCOC(=O)C1=C[C@@H](OC(CC)CC)[C@H](NC(C)=O)[C@@H](N)C1 |  | human | oral, given as phosphate salt |  | absolute bioavailability | 75 to 80% |
| CC[C@H](C)CCCCC(=O)N[C@@H](CCN)C(=O)N[C@H](C(=O)N[C@@H](CCN)C(=O)N[C@H]1CCNC(=O)[C@H]([C@@H](C)O)NC(=O)[C@H](CCN)NC(=O)[C@H](CCN)NC(=O)[C@H](CC(C)C)NC(=O)[C@@H](Cc2ccccc2)NC(=O)[C@H](CCN)NC1=O)[C@@H](C)O |  | human patients | intravenous, dose not given, population PK model |  | volume of distribution | 34.3 L |
| COc1cc(-c2cnc3cc(OCCN4CCOCC4)ccn23)cc2c1C(=O)N(CC(F)(F)F)CC2 |  | healthy human | oral, up to 600 mg |  | half-life | 9.5 to 15 h |
| C=C1/C(=C\C=C2/CCC[C@]3(C)[C@@H]([C@H](C)CC(=O)O)CC[C@@H]23)C[C@@H](O)C[C@@H]1O | LC-MS/MS | mouse, blood |  | below detection limit | blood concentration | < 6 nM |
| Cc1cn([C@H]2C=C[C@@H](CO)O2)c(=O)[nH]c1=O |  | water | hydrate |  | aqueous solubility | 1.96 log mg/mL |
| CCN(CC)CCNC(=O)c1c(C)[nH]c(/C=C2\C(=O)Nc3ccc(F)cc32)c1C |  | patients | dose not given, grade 3 |  | patients with thrombocytopenia | 8% |
| Cc1cc2nc3c(=O)[nH]c(=O)nc-3n(C[C@H](O)[C@H](O)[C@H](O)CO)c2cc1C |  | plasma | concentration not given |  | Cmax | 3.9 nM |
| O=C(/C=C/C=C/c1ccc2c(c1)OCO2)N1CCCCC1 | nevirapine elimination rate, measured: nevirapine | human | 20 mg, together with: nevirapine 200 mg |  | inhibition | no inhibition |
| COc1cccc(-c2c(C)n(Cc3c(F)cccc3C(F)(F)F)c(=O)n(C[C@H](NCCCC(=O)O)c3ccccc3)c2=O)c1F |  | human, Child-Pugh A hepatic impairment | 150 mg single dose, mean observed | reference: patients over healthy volunteers | Cmax ratio | 0.8 |
| BODIPY-PIP2 | fluorescence correlation spectroscopy | fluid PC membrane |  |  | diffusion coefficient | 3e-08 cm²/s |
| CC1(COc2ccc3c(c2)ncn3-c2ccc3cccc(N4CCC(N)CC4)c3n2)COC1 | microdialysis | mouse, high-grade glioma model, tumour extracellular fluid | dose not given |  | tumour-to-unbound plasma ratio | ~63% |

| Molecule | test | system | setting | scale | quantity | value |
| --- | --- | --- | --- | --- | --- | --- |
| C[C@H]1O[C@@H](O[C@H]2[C@@H](O)C[C@H](O[C@H]3[C@@H](O)C[C@H](O[C@H]4CC[C@@]5(C)[C@H](CC[C@@H]6[C@@H]5C[C@@H](O)[C@]5(C)[C@@H](C7=CC(=O)OC7)CC[C@]65O)C4)O[C@@H]3C)O[C@@H]2C)C[C@H](O)[C@@H]1O | population PK | human, TT genotype | dose not given | reference: CC and CT carriers | clearance reduction | 26.6% |
| Cc1c(C)c2c(c(C)c1O)CCC(C)(COc1ccc(CC3SC(=O)NC3=O)cc1)O2 (stereo not drawn) | rapid equilibrium dialysis | hepatocyte culture medium |  |  | unbound fraction | 0.03 to 0.05 |
| O=C(O)c1ccccc1O |  | plasma | concentration not given |  | Cmax | 605000 nM |
| Nc1ccn([C@@H]2CS[C@H](CO)O2)c(=O)n1 |  | healthy human volunteers | oral, 300 mg single dose, fasted, together with: abacavir 600 mg, dolutegravir 50 mg |  | AUC(0-t) | 12700 ng·h/mL |
| O=C1c2cccc3c2[C@H](CCC3)CN1[C@@H]1CN2CCC1CC2 |  | patients, plasma | oral, dose not given, netupitant-palonosetron combination, together with: cyclophosphamide 500 to 1000 mg/m^2 IV |  | CL/F | 11.3 L/h |
| Clc1ccccc1C(c1ccccc1)(c1ccccc1)n1ccnc1 |  | plasma | concentration not given |  | Cmax | 1020 nM |
| Br.Cc1ccc(Sc2ccccc2N2CCNCC2)c(C)c1 |  | human | together with: omeprazole |  | pharmacokinetics | no effect |
| CC(C)/N=c1\cc2n(-c3ccc(Cl)cc3)c3ccccc3nc-2cc1Nc1ccc(Cl)cc1 |  | THP-1 foamy macrophage matrix | 5 µM, 4 h, 37 °C |  | fraction unbound | < 0.01% |
| GVVIA | filtration | peptide, sodium phosphate buffer | pH 7.4 |  | solubility | 156 ± 33 µM |
| Oc1cc(Cl)ccc1Oc1ccc(Cl)cc1Cl |  | juvenile Chinook salmon, whole body wet weight | concentration not given, field-collected |  | maximum whole-body concentration | 26.4 ng/g |
| C=C1CC[C@@H]2[C@](C)(CO)[C@H](O)CC[C@@]2(C)[C@@H]1C/C=C1/C(=O)OC[C@H]1O |  | rat, duodenum | no cyclodextrin |  | effective permeability | 127 ×10⁻⁶ cm/s |
| CC[C@H](C)[C@H](NC(=O)[C@H](CCCCN)NC(=O)[C@H](CCCCN)NC(=O)[C@H](Cc1ccccc1)NC(=O)[C@H](CC(C)C)NC(=O)[C@H](CCCCN)NC(=O)[C@@H](N)CCCCN)C(=O)N[C@@H](CC(C)C)C(=O)N[C@@H](CCCCN)C(=O)N[C@H](C(=O)N[C@@H](CC(C)C)C(N)=O)C(C)C |  | horse erythrocytes 5 % v/v | 150 µM |  | hemolysis | 16 ± 2.9% |
| COc1cccc2c1C(=O)c1c(O)c3c(c(O)c1C2=O)C[C@@](O)(C(C)=O)C[C@@H]3O[C@H]1C[C@H](N)[C@H](O)[C@H](C)O1 |  | plasma | concentration not given |  | Cmax | 78000 nM |
| COc1ccnc(C[S+]([O-])c2nc3ccc(OC(F)F)cc3[nH]2)c1OC (stereo not drawn) |  | nonobese children, 6–11 years | oral |  | lag time | 0.8 h |
| Nc1ncnc2c1nc(Br)n2[C@@H]1O[C@@H]2COP(=O)(O)O[C@H]2[C@H]1O |  | methanol/water |  |  | log Kw | 1.35 |
| CN(C)CCCC1(c2ccc(F)cc2)OCc2cc(C#N)ccc21 (stereo not drawn) |  | human |  | reference: patients over 65 years over younger | mean concentration ratio | 2 fold |
| CC/C(=C(\c1ccccc1)c1ccc(OCCN(C)C)cc1)c1ccccc1 |  | plasma | concentration not given |  | Cmax | 400 nM |
| CC[C@@H]1CN(C(=O)NCC(F)(F)F)C[C@@H]1c1cnc2cnc3[nH]ccc3n12 | population pharmacokinetics | rheumatoid arthritis patients, moderate renal impairment | dose not given | reference: normal renal function | AUC increase | 32% |
| C#Cc1cccc(Nc2ncnc3cc(OCCOC)c(OCCOC)cc23)c1 | measured: parent compound | human patients, plasma | oral, 150 mg once daily, day 28 |  | Cmin | 1470 ± 877 ng/mL |
| CNCc1cc(-c2ccccc2F)n(S(=O)(=O)c2cccnc2)c1 |  | human | oral, single dose, NG, together with: clarithromycin, multiple doses | reference: with over without clarithromycin | AUC(0-inf) ratio | ~1.58 fold |
| O=C(O)c1ccccc1Nc1cccc(C(F)(F)F)c1 |  | plasma | concentration not given |  | Cmax | 46000 nM |
| Cc1ccccc1-c1cc(N2CCN(C)CC2)ncc1N(C)C(=O)C(C)(C)c1cc(C(F)(F)F)cc(C(F)(F)F)c1 |  | healthy volunteers, plasma | oral, dose not given, netupitant-palonosetron combination, together with: oral contraceptives |  | Tmax | 4.36 h |
| Cc1ccc(Nc2nccc(N(C)c3ccc4c(C)n(C)nc4c3)n2)cc1S(N)(=O)=O |  | patients | dose not given, all grades |  | patients with thrombocytopenia | 32% |
| Cn1cc(-c2ccc3nnc(Sc4ccc5ncccc5c4)n3n2)cn1 |  | human patients phase I | dose not given, BUN and creatinine rise |  | dose causing renal toxicity | > 80 mg |

Excerpt of the above:
| Molecule | test | system | setting | scale | quantity | value |
| --- | --- | --- | --- | --- | --- | --- |
| Nc1nc(NC2CC2)c2ncn([C@H]3C=C[C@@H](CO)C3)c2n1 |  | Japanese HIV-infected patients | 600 mg, single dose, fasted, together with: lamivudine 300 mg |  | AUC(0-inf) | 12900 ng·h/mL |
| CN1CCC[C@@H]1CCO[C@](C)(c1ccccc1)c1ccc(Cl)cc1 |  | rat | together with: cyclosporin A |  | log brain permeability-surface product | -1.16 mL/g/s |
| C#Cc1cccc(Nc2ncnc3cc(OCCOC)c(OCCOC)cc23)c1 | measured: parent compound | human patients, plasma | oral, 150 mg once daily, day 28 |  | Cmin | 1470 ± 877 ng/mL |
